Experimental data gathered from unrelated publications.
Lines come from different studies, so protocols differ. ± gives the spread as reported.
Slc6a3: Sodium-dependent dopamine transporter (Slc6a3, Rattus norvegicus, UniProt P23977)

Nc1ncnc2c1ncn2[C@@H]1O[C@H](COP(=O)(O)OP(=O)(O)OP(=O)(O)O)[C@@H](O)[C@H]1O — Kd (Hepatocyte growth factor receptor (MET, Homo sapiens, UniProt P08581, C1091S/C1146S/F1200I/K1232C); binding): 74 ± 6 µM
Brc1ccc2c(c1)C(c1ccccn1)=NCc1c(-c3cnco3)ncn1-2 — IC50 (Gamma-aminobutyric acid receptor subunit gamma-2 / Gamma-aminobutyric acid receptor subunit alpha-5, with β3 subunit (Homo sapiens, UniProt P18507+P31644)): 0.435 µM
CNC(C)C(=O)c1ccc2c(c1)OCO2 (stereo not drawn) — EC50 (Slc6a3; rat): 0.22 ± 0.04 µM
C#CC[C@@H](N)C(=O)N[C@H](CO)C(=O)N[C@@H](C(=O)N[C@H](CO)C(=O)N[C@H](CCC(=O)O)C(=O)N[C@@H](C(=O)N[C@H](CCC(N)=O)C(=O)N[C@H](CC(C)C)C(=O)N[C@H](CCSC)C(=O)N[C@H](Cc1c[nH]cn1)C(=O)N[C@H](CC(N)=O)C(=O)N[C@H](CC(C)C)C(=O)NCC(=O)N[C@H](CCCCN)C(=O)N[C@H](Cc1c[nH]cn1)C(=O)N[C@H](CC(C)C)C(=O)N[C@H](CC(N)=O)C(=O)N[C@H](CO)C(=O)N[C@H](CCSC)C(=O)N[C@H](CCC(=O)O)C(=O)N[C@H](CCCNC(=N)N)C(=O)N[C@@H](C(=O)N[C@H](Cc1ccc(O)cc1)C(=O)N[C@H](C)C(=O)N[C@H](CC(C)C)C(=O)N[C@H](CCCNC(=N)N)C(=O)N[C@H](Cc1ccccc1)C(=O)N[C@H](Cc1c[nH]cn1)C(=O)N[C@H](CC(C)C)C(=O)N[C@H](CCC(N)=O)C(=O)N[C@H](CC(C)C)C(=O)N[C@@H](C(N)=O)C(C)C)C(C)C)[C@H](C)CC)C(C)C — Ki (hemagglutinin influenza A/California/07/2009 H1N1): 35 µM
CCCC(NC)C(=O)c1ccc2c(c1)OCO2 (racemic) — IC50 (Slc6a3; dopamine uptake, inhibitor; rat caudate synaptosomes; with: [3H]dopamine 5 nM): 0.12 ± 0.01 µM
CCCCCCCC[C@H]1O[C@H]1C/C=C/C=C/[C@H](O)CC(=O)NC1=C[C@](C)(CC)OC1=O — IC50 (Na(+)-translocating NADH-quinone reductase subunit B, whole Na+-NQR complex (nqrB, Vibrio cholerae serotype O1, UniProt Q9KPS2, R151D); enzyme activity, inhibitor; NqrB-R151D mutant): < 0.01 µM
NC[C@H]1O[C@H](O[C@H]2[C@H](O)[C@@H](O[C@H]3O[C@H](CO)[C@@H](O)[C@H](N)[C@H]3O)[C@H](N)C[C@@H]2N)[C@H](O)[C@@H](O)[C@@H]1O — Kd (Multidrug resistance protein MdtM (mdtM, Salmonella typhi, UniProt Q8XFG0)): 0.24 ± 0.04 µM
O=c1[nH]c2ccccc2n1C1CCN(CCCC(c2ccc(F)cc2)c2ccc(F)cc2)CC1 — Ki (Signal transducer and activator of transcription 5B, SH2 domain (STAT5B, Homo sapiens, UniProt P51692); phosphopeptide binding, inhibitor, fluorescence polarization; with: FAM-GpYLVLDKW peptide): 29.6 µM
COC(=O)Cc1ccccc1 — IC50 (uncharacterized protein (Bradysia odoriphaga, UniProt A0A2S0X9G4); binding, competitive fluorescence displacement; pH 7.4): > 50 µM
O=C(Cc1ccc(Br)cc1)N[C@H]1CCOC1=O — IC50 (expR (Pectobacterium carotovorum, UniProt Q4KS34)): 3.5 µM
COc1cc(CCNCc2ccccc2OC)c(OC)cc1Br — EC50 (5-hydroxytryptamine receptor 2A (HTR2A, Homo sapiens, UniProt P28223); agonist): 0.00019 µM
Cc1cccc(C(C)c2cnc[nH]2)c1C (stereo not drawn) — Kd (Nuclear receptor subfamily 2 group C member 2, ligand-binding domain (Homo sapiens, UniProt P49116); binding): 0.000821 µM
NC(=O)c1cccnc1 — Ki (Nan-Iav channel Halyomorpha halys; binding): 108 µM
C#CC[C@@H](N)C(=O)N[C@H](CO)C(=O)N[C@@H](C(=O)N[C@H](CO)C(=O)N[C@H](CCC(=O)O)C(=O)N[C@@H](C(=O)N[C@H](CCC(N)=O)C(=O)N[C@H](CC(C)C)C(=O)N[C@H](CCSC)C(=O)N[C@H](Cc1c[nH]cn1)C(=O)N[C@H](CC(N)=O)C(=O)N[C@H](CC(C)C)C(=O)NCC(=O)N[C@H](CCCCN)C(=O)N[C@H](Cc1c[nH]cn1)C(=O)N[C@H](CC(C)C)C(=O)NCC(=O)N[C@H](CO)C(=O)N[C@H](CCSC)C(=O)N[C@H](CCC(=O)O)C(=O)N[C@H](CCCNC(=N)N)C(=O)N[C@@H](C(=O)N[C@H](Cc1ccc(O)cc1)C(=O)N[C@H](Cc1ccccc1)C(=O)N[C@H](CC(C)C)C(=O)N[C@H](CCCNC(=N)N)C(=O)N[C@H](Cc1ccccc1)C(=O)N[C@H](CCCCN)C(=O)N[C@H](CC(C)C)C(=O)N[C@H](CCC(N)=O)C(=O)N[C@H](CC(C)C)C(=O)N[C@@H](C(N)=O)[C@H](C)CC)C(C)C)[C@H](C)CC)C(C)C — Ki (hemagglutinin influenza A/California/07/2009 H1N1): 28 µM
CNC(C)Cc1ccc2c(c1)OCO2 (stereo not drawn) — IC50 (Sodium-dependent serotonin transporter (SLC6A4, Homo sapiens, UniProt P31645)): 13.7 ± 1.6 µM
CC[C@@H](NC(=O)CNC(=O)[C@@H](Cc1ccccc1)NC(=O)CNC(=O)[C@H](N)CCC(N)=O)C(=O)N[C@H](CC(=O)O)C(=O)N[C@H](CCC(=O)O)C(=O)N[C@H](CCSC)C(=O)N[C@H](CC(C)C)C(=O)N[C@H](CCC(N)=O)C(=O)NCC(=O)N[C@H](Cc1ccccc1)C(=O)N[C@H](C)C(=O)N[C@@H](C(=O)N[C@H](C)C(=O)N[C@H](CC)C(=O)N[C@H](CCCCN)C(=O)N[C@H](CCSC)C(=O)NCC(=O)N[C@H](C)C(=O)N[C@H](Cc1ccc(O)cc1)C(=O)N[C@H](CCCCN)C(=O)N[C@H](C)C(=O)N[C@H](Cc1c[nH]c2ccccc12)C(=O)O)C(C)C — Ki (hemagglutinin influenza A/California/07/2009 H1N1): 7 µM
CCCc1cc(O)c2c(c1)OC(C)(C)[C@@H]1CCC(C)=C[C@@H]21 — EC50 (Transient receptor potential cation channel subfamily V member 3 (TRPV3, Homo sapiens, UniProt Q8NET8, S444A); calcium uptake, agonist; HEK293S; mutant S444A, site 2): 2.43 ± 0.14 µM
CC[C@@H](NC(=O)CNC(=O)[C@@H](Cc1ccccc1)NC(=O)CNC(=O)[C@H](N)CCC(N)=O)C(=O)N[C@H](CC(=O)O)C(=O)N[C@H](CCC(=O)O)C(=O)N[C@H](CCSC)C(=O)N[C@H](CC(C)C)C(=O)N[C@H](CCC(N)=O)C(=O)NCC(=O)N[C@H](Cc1ccccc1)C(=O)N[C@H](C)C(=O)N[C@@H](C(=O)N[C@H](C)C(=O)N[C@H](CC)C(=O)N[C@H](CCCCN)C(=O)N[C@H](CCSC)C(=O)NCC(=O)N[C@H](C)C(=O)N[C@H](Cc1ccc(O)cc1)C(=O)N[C@H](CCCCN)C(=O)N[C@H](C)C(=O)N[C@H](CC(=O)O)C(=O)O)C(C)C — Ki (hemagglutinin influenza A/California/07/2009 H1N1): 6 µM
Oc1cccc([C@]23CCC[C@H]([C@H]2O)N(CC=Cc2ccccc2)CC3)c1 — EC50 (Delta-type opioid receptor (Oprd1, Rattus norvegicus, UniProt P33533); agonist; C6 cells expressing δ-opioid receptor, cell membranes): 0.253 µM
CC[C@@H](NC(=O)CNC(=O)[C@@H](CC(C)C)NC(=O)CNC(=O)[C@H](N)CCC(N)=O)C(=O)N[C@H](CC(=O)O)C(=O)N[C@H](CCC(=O)O)C(=O)N[C@H](CCSC)C(=O)N[C@H](CC(C)C)C(=O)N[C@H](CCC(N)=O)C(=O)NCC(=O)N[C@H](Cc1ccccc1)C(=O)N[C@H](C)C(=O)N[C@@H](C(=O)N[C@H](C)C(=O)N[C@@H](C(=O)N[C@H](CCCCN)C(=O)N[C@H](CCSC)C(=O)NCC(=O)N[C@H](C)C(=O)N[C@H](Cc1ccc(O)cc1)C(=O)N[C@H](CCCCN)C(=O)N[C@H](C)C(=O)N[C@H](Cc1c[nH]c2ccccc12)C(=O)O)C(C)C)C(C)C — Ki (hemagglutinin influenza A/California/07/2009 H1N1): 6 µM
O=C(O)c1nccnc1NC(=O)c1cccc2ccccc12 — Kd (Aspartate 1-decarboxylase (panD, Mycobacterium tuberculosis, UniProt P9WIL3); binding): 20 ± 0.5 µM

Some of these lines once more:
O=C(Cc1ccc(Br)cc1)N[C@H]1CCOC1=O — IC50 (expR (Pectobacterium carotovorum, UniProt Q4KS34)): 3.5 µM
